Experimental data gathered from unrelated publications.
Parts stem from different laboratories: compare values within a part only. Positions count from the first letter of the parent shown.

Study 1
Target: CCNF, cyclin fold, Cln2 fusion (human)
Technique: yeast growth competition, sequencing
Matrix: yeast
Setting: weak parent motif
Relative to: not given
Direction: higher = stronger binding
Starting sequence: PKN2 docking peptide (human); VSAVQKLDFSDTM
| Variant | normalised enrichment score |
| --- | --- |
| M13P | -0.3 |
| M13L | 0.556 |
| K6I | -0.924 |
| L7Q | -0.634 |
| A3T | -0.14 |
| S2W | 1.05 |
| S10P | 0.992 |
| A3Y | 0.31 |
| V1G | -0.22 |
| F9W | -0.403 |
| L7G | -0.228 |
| L7D | -0.922 |
| D11P | -0.263 |
| V4C | -0.301 |
| L7F | -0.281 |
| S10L | 0.282 |
| T12G | 0.468 |

Study 2
Target: ABI1, truncated, D143A, DHFR fusion (Arabidopsis thaliana)
Technique: DHFR PCA, deep sequencing
Matrix: yeast
Setting: methotrexate growth selection, single substitutions
With: (+)-ABA 4.8 µM
Relative to: wild-type fitted maximum
Direction: higher = stronger binding
Starting sequence: PYL1, truncated, DHFR fusion (Arabidopsis thaliana); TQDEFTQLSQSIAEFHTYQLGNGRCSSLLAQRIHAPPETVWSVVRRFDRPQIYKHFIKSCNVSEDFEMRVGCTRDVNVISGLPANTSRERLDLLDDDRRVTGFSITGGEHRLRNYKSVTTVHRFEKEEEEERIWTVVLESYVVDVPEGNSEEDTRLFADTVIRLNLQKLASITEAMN; partner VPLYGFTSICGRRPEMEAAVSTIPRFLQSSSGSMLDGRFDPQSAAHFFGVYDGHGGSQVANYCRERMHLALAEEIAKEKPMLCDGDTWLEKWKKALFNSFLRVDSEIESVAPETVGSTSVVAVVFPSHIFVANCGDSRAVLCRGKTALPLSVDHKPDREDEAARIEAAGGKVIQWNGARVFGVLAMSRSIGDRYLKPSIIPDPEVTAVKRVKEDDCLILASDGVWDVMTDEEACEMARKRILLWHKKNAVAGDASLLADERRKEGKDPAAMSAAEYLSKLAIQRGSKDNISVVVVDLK
| Variant | relative binding score |
| --- | --- |
| R98E | 29.7% |
| G108E | -12.7% |
| N61P | 1.95% |
| G71M | 0.505% |
| L91N | 3.16% |
| K58E | 47.8% |
| C60A | 27.3% |
| K116P | -6.32% |
| L166V | -0.604% |
| P50M | -17.7% |
| A170E | 18.5% |
| S26I | 9.88% |
| E129W | 54.8% |
| R113M | 65.6% |
| Y53R | 7.11% |

Study 3
Target: RNA binding protein fox-1 homolog 2, RRM domain, GST-SBP tag (RBFOX2, Homo sapiens, UniProt O43251-10, residues 100-194)
Technique: RNA Bind-n-Seq
Form: RNA
Matrix: in vitro
Concentration: 365 nM
Setting: natural RNA segment, single round, ends assumed
Relative to: no-protein control
Direction: higher = stronger binding
Shared flanks, not repeated: GGGAGUUCUACAGUCCGACGAUC … UGGAAUUCUCGGGUGCCAA
Construct (chain): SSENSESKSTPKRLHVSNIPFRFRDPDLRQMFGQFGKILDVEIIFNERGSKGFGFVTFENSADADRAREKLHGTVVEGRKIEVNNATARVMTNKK
| Oligonucleotide | RBNS enrichment (R) |
| --- | --- |
| GAAGCCCUACCAGGCUUCCCAGCAGCGCCACCUUCAGGCAGGAGUCAGAACUGUCCCCUUGGAGAUGUGACUGUGUUUGUAACAAUAUUGUCCUCACUGCCGUGGACACG | 0.29 |
| GAUCUGCUUGCCCCAAACAAAUGGUGUAAGCUGAGGGAAACUCCAACCCCACACUUGAUGCUCUGUCCUCUCCACACAGGCCUCUUGCUCCUAACAGCUCAGCCCUGGCC | 0.256 |
| UUUAAAAAGCCAGAGAUUUCUUCUGUCUAAACUGUUUCUAUAGCAUUUUCUAAACAAAAAAAAUGGUUUUUUUCUUUGCCUUGUAAUAAGAUUGUAAAUCCAUUUCCUGC | 5.35 |
| CGCGCAUGAAUACUUUAAAUGCCAACCUUUUCAAUCAUUUGAUAAAGUCUUUGUAGUCACUCAGUCACCUUUGGUGUCUGUGUGUGUGUGUGUGUGUGUGUGUGUGUGUG | 0.364 |
| UUGGUUUGGUUUCUUCUGUUCUGCACUUUGGAGUCCCUGGGUAUUCCACAUUACAAGUUGAUGUUAUAGGUGGGGGCUGGAAUUGUUGCCCUGGAUGUGGGGACCAAGGU | 1.75 |
| GCCAAAGGUAAAAUUGAGUUUAUUCUUUUUCAUACAGAAAUGGAUUUUGCUUUUGUUUGCUUUUUAUUUUUGUGUAAAAUCUAAAUUCCAGGAGCUAUGGGGUUCAUCCA | 1.73 |
| UUUGAAGCUCUAUGUUGCCAUAAUUACCAUCAAGUACACACUGUUGGCAAAAGGCUAACACCUGACUUUAGAAAAUGCUGAUUUGAGAACAAAAGGAAAGGUCUUUUUUC | 0.304 |
| UUGGGAUUCUUGAUGAAAUCCCCUGCCCCGCGUGCGUGUCAGUGCAGAUCCUGCGCACCACGCCCCCUCCCCCAAGUGCCCUCUGCCGAGCCCGUCCUGGUAUUGACUUU | 0.325 |
| AUUUGACUGGAAAUGUAUAAUGUGUUUUACUGUUGAAAAAAAUAUGAGCUCUGUUUCAACUAACGUGUCAUCUUGUAUUUCUUUCAAGGAAACCAAUUAGAUUCAAAUGU | 0.37 |
| CUCCCCCAGCCAGGUUCUGCUCUGGCUGGGCCCUUGGCUGGACUCCUAUUCAAAUUUAUUUGACGUUUUAUUUUGGUUUUCCUCACCCCCUCAAACUGUCGGGGAGACCC | 0.554 |
| UUAUAUACAUCCAAAUAUAUAUACUUUUUCUACCCAAUUAUUCAACUUAAAAGAUUUCAAAAACGAUUUAGCCUUAUAAUGUAUUUAUUUAUUUAAUUCAUUAAUGAAAG | 0.99 |
| AAUUGAUGUUCUUGCUUUGUGUUGUGUUCUGGUAAAGCUUUAAGUGAGUGUCUUACCCCUUUCCUAUACUUUCUUGUUAUCCAUAUCAUUCUUUUGUGAGUUUUGCAGCA | 1.48 |

Study 4
Target: Phosphate system positive regulatory protein PHO4, full length, GST-tagged (PHO4, Saccharomyces cerevisiae, UniProt P07270, residues 1-312)
Technique: competition protein-binding microarray
Form: double-stranded DNA, one strand shown
Matrix: in vitro
Concentration: 2 µM
Setting: whole 60-bp probe, lowest competitor level
With: Cbf1 competitor, 0.05 µM
Direction: higher = stronger binding
Shared flanks, not repeated: … GTCTTGATTCGCTTGACGCTGCTG
Target sequence (chain): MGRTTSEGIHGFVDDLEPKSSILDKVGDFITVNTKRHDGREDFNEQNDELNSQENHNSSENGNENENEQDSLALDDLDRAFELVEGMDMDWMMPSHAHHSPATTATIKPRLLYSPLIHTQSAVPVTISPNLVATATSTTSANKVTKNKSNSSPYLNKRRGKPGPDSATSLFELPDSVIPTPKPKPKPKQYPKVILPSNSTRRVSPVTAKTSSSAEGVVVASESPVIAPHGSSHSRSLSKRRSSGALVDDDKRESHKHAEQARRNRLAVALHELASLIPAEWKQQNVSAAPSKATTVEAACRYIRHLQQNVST
| Oligonucleotide | fluorescence intensity [a.u.] |
| --- | --- |
| CATACCCAACCTTGGCTTGTGGGTGAAGATATTTGT | 5290 |
| CATTGGTGTCATTGTCATGATCCACTCTGACAACAA | 3780 |
| AGATAGAAGATCAAATCCGTGCCAGAACCGCCCTGC | 4610 |
| TGCGCAACAACTTGGTCCGTGGGTGTATGTCTAGAA | 6350 |
| CGGGGTTAAGTTTGTTTCGTGGGTGGCTTGCAGCAG | 4730 |
| AAATTACTAAGTTTTCACGTGGCATACCCCGTATGA | 14400 |
| AAAGCGGTAATTTGCATGGTGGGTGCAGATATCTAT | 5750 |
| CTTCTGTAAATTTGACCAGTGGGTGGACGCGCCCCG | 3670 |
| CTTCGTTCCTTCCGTCACATGATGAGATAGAGGAAT | 7860 |
| CCTTGAATGATAAAACACGTTAAAGTTTCTAGATCA | 5910 |
| CATACCCAACCTTGGAGCGTGGGTGAAGATATTTGT | 7950 |
| GCGCTGCGCAATCTCAACGTGGTGAGGATCTTTGAA | 10200 |
| AAATTACTAAGTTGCTGGGTGGGTGACGCCGTATGA | 4110 |
| TCGGCTATCTGTGAGTACGTGCGGACTTCCAACGTC | 7300 |
| GCCCATCATCGCGGCCACGCAACCCGGTAATCTCTA | 6470 |
| AGTTGTTGCTCGTCGCTCGTGTAGGACTGTAGTTGC | 6140 |
| ATGCCATGGGTGTCTCATGTGGTCCAGTGAGTTGAT | 7980 |
| GGCACCCGCGATTCACACGTGTCCAAAAGAGTTCCC | 16900 |
| GCTGCGGCATCATTGATCATGCCATTTTTGGACAAT | 4010 |
| GTACTGCACCATTTGACCGTGATGGACACCATGGAG | 6620 |
| CCGTAGCCTCTTACCAATGTGACGGAGACCCCACCG | 4510 |
| AAATTACTAAGTTGGGTGGTGGGTGACGCCGTATGA | 5050 |
| TTTTACATGAAACTGCGCGTGCCAGAAATGTTAAGA | 11800 |

Study 5
Target: Histone acetyltransferase KAT6A, winged helix 1, GST fusion (KAT6A, Homo sapiens, UniProt Q92794, residues 1-85)
Technique: protein binding microarray
Form: double-stranded DNA, one strand shown
Matrix: in vitro
Concentration: not given
Setting: 8-mer, flanks averaged, mean of 2 arrays, mostly near background
Relative to: not given
Direction: higher = stronger binding
Target sequence (chain): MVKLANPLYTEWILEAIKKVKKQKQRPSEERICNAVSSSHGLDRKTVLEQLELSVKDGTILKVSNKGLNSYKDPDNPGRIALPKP
| Oligonucleotide | E-score |
| --- | --- |
| CGTCCAGC | -0.0165 |
| ATGGCCTA | 0.0753 |
| CAAAGATG | -0.114 |
| GGAGGTCA | -0.0952 |
| ACGCGAAC | 0.0584 |
| ACGGTTCG | 0.148 |
| CCGCAATC | 0.224 |
| ACTGAGGC | 0.000775 |
| GAGCATCA | -0.165 |
| GCTCCGGA | 0.127 |
| ACGTGTCT | -0.0922 |
| ACCGAACT | -0.236 |
| TGTTCGAA | -0.116 |
| CTGCAATC | -0.106 |
| AACCTGAG | -0.0269 |
| AAAAACGC | 0.117 |
| AGCCCGTA | 0.263 |
| CGCCCAAA | -0.0239 |
| CTCTGTAC | 0.012 |
| TAATTAAA | -0.135 |
| ACCAACAC | -0.209 |
| GAATATAC | 0.103 |
| GGTGACCA | -0.143 |
| GGTGTCAA | -0.026 |
| ACATCAGA | -0.14 |

Further values, each from its own experiment
| Molecule | target | test | system | setting | scale | endpoint | value |
| --- | --- | --- | --- | --- | --- | --- | --- |
| PhoQ, residues 284 288 289 292 302 303 NLMGRA | PhoP, residues 12 14 15 18 19 LHSVQ (Escherichia coli, UniProt P23836) | Sort-seq, measured: YFP reporter | E. coli | PhoQ-PhoP variant library, with: 10 µM Mg2+ | relative to: high Mg2+ state, higher = stronger signaling | fold induction | 13.2 |

Some of these lines once more (study 4):
| Oligonucleotide | fluorescence intensity [a.u.] |
| --- | --- |
| TCGGCTATCTGTGAGTACGTGCGGACTTCCAACGTC | 7300 |
| AGTTGTTGCTCGTCGCTCGTGTAGGACTGTAGTTGC | 6140 |
| AAAGCGGTAATTTGCATGGTGGGTGCAGATATCTAT | 5750 |
| CATACCCAACCTTGGCTTGTGGGTGAAGATATTTGT | 5290 |
| CATTGGTGTCATTGTCATGATCCACTCTGACAACAA | 3780 |
| GCCCATCATCGCGGCCACGCAACCCGGTAATCTCTA | 6470 |
| GCGCTGCGCAATCTCAACGTGGTGAGGATCTTTGAA | 10200 |
| AAATTACTAAGTTTTCACGTGGCATACCCCGTATGA | 14400 |
| GTACTGCACCATTTGACCGTGATGGACACCATGGAG | 6620 |
| CGGGGTTAAGTTTGTTTCGTGGGTGGCTTGCAGCAG | 4730 |
| GCTGCGGCATCATTGATCATGCCATTTTTGGACAAT | 4010 |
| TTTTACATGAAACTGCGCGTGCCAGAAATGTTAAGA | 11800 |
